Measured values of several laboratories.
Lines come from different studies, so protocols differ. ± gives the spread as reported.

| Structure (SMILES) | target or system | assay | test system | conditions | scale | measurement | value |
| --- | --- | --- | --- | --- | --- | --- | --- |
| N=C(N)NCCC[C@@H]1NC(=O)[C@H](CCCCNC(=O)CNC(=O)CNC(=O)CNC(=O)CC[C@H](NC(=O)CCOCCOCCOCCOCCNC(=O)CC[C@H](NC(=O)CN2CCN(CC(=O)O)CCN(CC(=O)O)CCN(CC(=O)O)CC2)C(=O)NCCOCCOCCOCCOCCC(=O)N[C@@H](CCC(=O)NCC(=O)NCC(=O)NCC(=O)NCCCC[C@@H]2NC(=O)[C@@H](Cc3ccccc3)NC(=O)[C@H](CC(=O)O)NC(=O)CNC(=O)[C@H](CCCNC(=N)N)NC2=O)C(=O)NCC(=O)NCC(=O)NCC(=O)NCCCC[C@@H]2NC(=O)[C@@H](Cc3ccccc3)NC(=O)[C@H](CC(=O)O)NC(=O)CNC(=O)[C@H](CCCNC(=N)N)NC2=O)C(=O)NCC(=O)NCC(=O)NCC(=O)NCCCC[C@@H]2NC(=O)[C@@H](Cc3ccccc3)NC(=O)[C@H](CC(=O)O)NC(=O)CNC(=O)[C@H](CCCNC(=N)N)NC2=O)NC(=O)[C@@H](Cc2ccccc2)NC(=O)[C@H](CC(=O)O)NC(=O)CNC1=O [indium-111 labelled] | – | – | athymic nude mice, female, U-87 MG glioma xenograft, tumour and liver | intravenous, 0.5 h | baseline: tumour over liver | tumour to tissue ratio | 3.15 ± 0.81 |
| C[C@@H](O)[C@H](NC(=O)[C@@H]1CSSC[C@H](NC(=O)[C@@H](Cc2ccccc2)NC(=O)CN2CCCN3CCN(CCCN(CP(=O)(O)O)CC3)CC2)C(=O)N[C@@H](Cc2ccc(O)cc2)C(=O)N[C@H](Cc2c[nH]c3ccccc23)C(=O)N[C@@H](CCCCN)C(=O)N[C@@H]([C@@H](C)O)C(=O)N1)C(=O)O [copper-64 labelled] | AR-42J | – | – | 4 nM, 240 min | baseline: added activity/mg protein | internalization | 34 ± 0.4% |
| COc1ccnc(Nc2c3c(nc4cc(C)ccc24)CCCC3)c1 | SH-SY5Y | MTT | – | 50 µM, 1 h pretreatment, 10% FBS, added: H2O2 | – | viability | 42.5 ± 2.94% |
| CCCCCCCCCCOCc1cn(CC2=CC[C@@H]3C(C(=O)OC)=CO[C@@H](OC(C)=O)[C@H]23)nn1 | SK-N-SH | neuroprotection, MTT | – | 0.3 µM, 24 h, added: 250 µM H2O2 | – | viability | 60.8 ± 0.6% |
| N=C(N)NCCC[C@@H]1NC(=O)[C@H](CCCCNC(=O)CCOCCOCCOCCOCCNC(=O)CN2CCN(CC(=O)O)CCN(CC(=O)O)CCN(CC(=O)O)CC2)NC(=O)[C@@H](Cc2ccccc2)NC(=O)[C@H](CC(=O)O)NC(=O)CNC1=O [indium-111 labelled] | – | – | athymic nude mice, female, U-87 MG glioma xenograft, tumour and liver | intravenous, 0.5 h | baseline: tumour over liver | tumour to tissue ratio | 1.34 ± 0.2 |
| CC[C@H](C)[C@@H]([C@@H](CC(=O)N1CCC[C@H]1[C@H](OC)[C@@H](C)C(=O)N[C@H](C)[C@@H](O)c1ccccc1)OC)N(C)C(=O)[C@@H](NC(=O)[C@@H](NC)C(C)C)C(C)C | MDA-MB-231 cells | cytotoxicity | – | – | baseline: MMAF EC50 over compound EC50 | potency fold over MMAF | ~170 fold |
| CC1=CCC23OC2(C)CCC2C(C[N+](C)(C)C)C(=O)OC2C13.[I-] (stereo not drawn) | SR | cell growth or viability, SRB | – | 8.3 µM | – | inhibition | 89.6% |
| CCN(Cc1ccccc1)C(=O)CCc1nc(CN2CCN(C(=O)Cc3ccc(OC)c(OC)c3)CC2)no1 | Potassium voltage-gated channel subfamily KQT member 5 (KCNQ5, Homo sapiens, UniProt Q9NR82) | opener, whole-cell patch clamp | transfected cells | 10 µM | baseline: control, towards hyperpolarisation | activation midpoint shift | 24.4 mV |
| CC[C@H](C)[C@@H](OC(=O)[C@@H](NC(=O)[C@H](C)OC(=O)[C@H](NC(=O)[C@H](OC(=O)[C@@H](NC(=O)[C@@H](C)OCc1ccccc1)C(C)C)[C@@H](C)CC)C(C)C)C(C)C)C(=O)N[C@@H](C(=O)OC(C)(C)C)C(C)C | NCI-460 | cell growth or viability | – | – | – | GI50 | > 10 µg/mL |
| COC(=O)C1=CO[C@@H](OC(C)=O)[C@@H]2C(Cn3cc(C4(O)CCCC4)nn3)=CC[C@H]12 | SK-N-SH | neuroprotection, MTT | – | 0.075 µM, 24 h, added: 250 µM H2O2 | – | viability | 52.3 ± 0.8% |
| CN1C(=O)C2(Cc3ccc(CC45SSC(CO)(C(=O)N4C)N(C)C5=O)cc3)SSC1(CO)C(=O)N2C (racemic) | MCF7 cells | microarray | – | 600 nM, fold change at least 2.0, added: DFO 300 µM | baseline: DFO alone | number of down-regulated transcripts | 113 |
| CCCCCCCCC(=O)NCc1ccc(O)c(OC)c1 | mouse mAb 1-D6 | antibody binding, indirect competitive ELISA | – | added: coating antigen 2-OVA | – | IC50 | 1.78 µg/mL |
| CCCC[C@H](NC(=O)CNC(=O)CNC(=O)c1ccc(NN)nc1)C(=O)N[C@H]1CC(=O)NCCCC[C@@H](C(N)=O)NC(=O)[C@H](Cc2c[nH]c3ccccc23)NC(=O)[C@H](CCCNC(=N)N)NC(=O)[C@@H](Cc2ccccc2)NC(=O)[C@H](Cc2c[nH]cn2)NC1=O [technetium-99m labelled] | – | – | C57 mouse, B16/F1 melanoma, brain | 2 h, added: NDP-MSH 6.07 nmol blockade | – | uptake | 0.01 ± 0.01 %ID/g |
| CC(ON1C(C)(C)CCCC1(C)C)c1ccc(OC(=O)[C@@H](NC(=O)[C@@H]2CCCN2C(=O)[C@H](C)NC(=O)[C@H](C)NC(=O)CCC(=O)O)C(C)C)cc1 (stereo partly drawn) | U87 | cell viability, PrestoBlue | – | 48 h, added: HNE 0.68 µM | – | LC50 | ~150 µM |
| CC(C)CC(O)(CC(C)C)c1cn(C(=O)N2CCCC2)nn1 | mouse T-cells | SILAC proteomics, measured: NIBAN | – | 1 nM, 6 h, unit not given | baseline: DMSO | protein level | 1.1 ± 0.04 |
| COC(=O)C1=CO[C@@H](OC(C)=O)[C@@H]2C(Cn3cc(CN4C(=O)c5ccccc5C4=O)nn3)=CC[C@H]12 | SK-N-SH | neuroprotection, MTT | – | 0.6 µM, 24 h, added: 250 µM H2O2 | – | viability | 58.2 ± 1.7% |
| [Cl][Au].[Se]=c1n(C2CCCCC2)ccn1C1CCCCC1 | A-431 | cell growth or viability, MTT | – | 72 h | – | IC50 | 3.5 µM |
| COC(=O)C1=CO[C@@H](O)[C@@H]2C(Cn3cc(-c4ccc(F)cc4)nn3)=CC[C@H]12 | SK-N-SH | neuroprotection, MTT | – | 0.6 µM, 24 h, added: 250 µM H2O2 | – | viability | 59.9 ± 0.7% |
| CC/C=C\C/C=C\C/C=C\C/C=C\C/C=C\C/C=C\CCC(=O)Nc1ccn(C2OC(CO)C(O)C2(F)F)c(=O)n1 (stereo not drawn) | SR | NCI60 screen | – | – | – | CC50 | > 100 µM |
| CCCCCCCCCCOCc1cn(CC2=CC[C@@H]3C(C(=O)OC)=CO[C@@H](O)[C@H]23)nn1 | SK-N-SH | neuroprotection, MTT | – | 0.6 µM, 24 h, added: 250 µM H2O2 | – | viability | 61.2 ± 0.8% |
| CN[C@](C)(C[18F])C(=O)O | SK-OV-3 tumour model | – | host not given, blood | 30 min, tumour-bearing | – | tracer uptake | 2.3 %ID/g |

A few entries again:
| Structure (SMILES) | target or system | assay | test system | conditions | scale | measurement | value |
| --- | --- | --- | --- | --- | --- | --- | --- |
| CN1C(=O)C2(Cc3ccc(CC45SSC(CO)(C(=O)N4C)N(C)C5=O)cc3)SSC1(CO)C(=O)N2C (racemic) | MCF7 cells | microarray | – | 600 nM, fold change at least 2.0, added: DFO 300 µM | baseline: DFO alone | number of down-regulated transcripts | 113 |
| CCCCCCCCCCOCc1cn(CC2=CC[C@@H]3C(C(=O)OC)=CO[C@@H](O)[C@H]23)nn1 | SK-N-SH | neuroprotection, MTT | – | 0.6 µM, 24 h, added: 250 µM H2O2 | – | viability | 61.2 ± 0.8% |
| CC(C)CC(O)(CC(C)C)c1cn(C(=O)N2CCCC2)nn1 | mouse T-cells | SILAC proteomics, measured: NIBAN | – | 1 nM, 6 h, unit not given | baseline: DMSO | protein level | 1.1 ± 0.04 |
